Results pooled from the literature.
Parts stem from different laboratories: compare values within a part only.

Block 1 — method: RNA Bind-n-Seq; molecule type: RNA; medium: in vitro; tested at: 365 nM; reference: no-protein control; reading: higher = stronger binding
Target: RNA binding protein fox-1 homolog 2, RRM domain, GST-SBP tag (RBFOX2, Homo sapiens, UniProt O43251-10, residues 100-194)
Notes: natural RNA segment, single round, ends assumed
Shared flanks, not repeated: GGGAGUUCUACAGUCCGACGAUC … UGGAAUUCUCGGGUGCCAA
Residues (chain): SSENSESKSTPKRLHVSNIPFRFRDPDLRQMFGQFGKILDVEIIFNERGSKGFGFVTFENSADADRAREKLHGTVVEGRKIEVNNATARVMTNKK
Under “RBNS enrichment (R)”, `CCUUUUUGGGGGAGUGAGAAUACAGAUACAAGAAGACAGACACAUUUAGAUGGAAUCUUACCACGACUUGAGGCUAGGACCACCCACUUCCUCUUUCCCAGCCCUAUUUC` is recorded as 0.393.
Under “RBNS enrichment (R)”, `UGAAAGUGCCAGGUGCUAGAUUCCUCCUCCUUGGAAUUGUGUUAGGCUAGUUGGUCCUCUUUGAGGAAGCAUAUAGUACAGACUUCUUAGCACUUAGGAAGCUUCUCCAA` is recorded as 0.319.
`AGGUCAUUAUUUUGUUGUACCAAAGUUCUAGUGGCUUCAGAAAUCAUAGCAUCCAAUGAUUUUUUGGUGUCUGGCUAUGAAUACUAUGGUUGAGAAUUGUAUUCAGUGAU` — result for “RBNS enrichment (R)”: 0.818.
Under “RBNS enrichment (R)”, `CUGCAGUUAGAACAUGGAUGUUUCUUCUUUGAUUAUCAAAAACACAAAAACAGAGAGCAAGCCCGAGGAGGAGACUGGUGACUUUCCUGUGUCCUCAGCUAACAAAGGCA` is recorded as 2.01.
Under “RBNS enrichment (R)”, `GGACUCUGCUACACUGUGCCUUUGUGGUCAGCCUCACUGACGGGGUCUGCAAGUAGCCAGGGCGUGUGGGACAAAAGCAGGUCACACGCAGAGCAGGAAAUCAGACCAAG` is recorded as 0.495.
`CUGACUUACGAAAGUUGAAUUGGGUGAGGCGGGCAAAUCACCUGAGGUCAGCAGUUUGAGACUAGCCUGGCAAACAUGAUGAAACCCUGUCUCUACUAAAAAUACAAAAA` — result for “RBNS enrichment (R)”: 0.345.
Under “RBNS enrichment (R)”, `GCCCCAUCUGCAGGAGCCUGAAGAUCCAGCUCAAGUGCCAUCCUGCCAGUGGCCCCCAGACUGUGGGGUUGGGACGCCUGGCCUCUGUGUCCUAGAAGGGACCCUCCUGU` is recorded as 0.388.
For `UCGGCCCAGAGCUUCCCUUCCGGCUGGCUCUGAACCGUGCGUGGUGCCUACAGCCUGCAGUCUGGAGACAAGCUCUUCCGGAGUGCUCUGGGAGCCAGGCCAGGGUGUGA`, “RBNS enrichment (R)” read 0.23.
Under “RBNS enrichment (R)”, `AUGAGCCUCGGCCAUCUCUCCCUCCUGCCCUCUGCUUGGGGGACUCAGGGCUCCAUUCUGGAGGGCACCACGGUGACCCGGGCCAUCUCAGUAUUGCCUGUGGGGGCCAC` is recorded as 0.388.
Under “RBNS enrichment (R)”, `GCACUUAUCUUUUGAGUUUGUACUGUGGUCCAUGUACUUACUAAUAUGUUGCUUUGUAAUUAUUUUCUAGCACUCUGUGUUACAGUUUCAUAUUUGUAUUUAUUUCCAAA` is recorded as 1.8.
`AUCAUAUGAAUGUUCUUGGUUCCCAUUGUGACGAUUAUUUAUUUCUGUAAAAUUUGUUUAGAAGUACGUUUUUGCAUUAUUCAUAUGCUUCCCAGAGAAGCUCAUUUAGU`: “RBNS enrichment (R)” 1.76.
For `ACCAAAUGUGCAUUGAAUACUCUGAAACCGAAGGGACUGGAUCUGCAGGUGGGAUGAGGGAGACAGACCACUUUUCUAUAUUGCAGUGUGAAUGCUGGGCCCCUGCUCAA`, “RBNS enrichment (R)” read 2.09.

Block 2 — method: protein-binding microarray; molecule type: double-stranded DNA, one strand shown; medium: in vitro; tested at: 250 nM; notes: 60-bp whole probe; together with: salmon DNA 0.4 mg/ml; reference: random background probes; reading: higher = stronger binding; shared flanks, not repeated: GCCTAGCAC … GTCTTGATTCGCTTGACGCTGCTG
Target: Interferon regulatory factor 7, full length, phosphomimetic (IRF7, Homo sapiens, UniProt Q92985, residues 1-503, S101K/S471D/S472D/S475D/S476D/S477D/S483D/S484D/S487D)
Chain of UniProt Q92985 (whole entry, unmodified, looked up): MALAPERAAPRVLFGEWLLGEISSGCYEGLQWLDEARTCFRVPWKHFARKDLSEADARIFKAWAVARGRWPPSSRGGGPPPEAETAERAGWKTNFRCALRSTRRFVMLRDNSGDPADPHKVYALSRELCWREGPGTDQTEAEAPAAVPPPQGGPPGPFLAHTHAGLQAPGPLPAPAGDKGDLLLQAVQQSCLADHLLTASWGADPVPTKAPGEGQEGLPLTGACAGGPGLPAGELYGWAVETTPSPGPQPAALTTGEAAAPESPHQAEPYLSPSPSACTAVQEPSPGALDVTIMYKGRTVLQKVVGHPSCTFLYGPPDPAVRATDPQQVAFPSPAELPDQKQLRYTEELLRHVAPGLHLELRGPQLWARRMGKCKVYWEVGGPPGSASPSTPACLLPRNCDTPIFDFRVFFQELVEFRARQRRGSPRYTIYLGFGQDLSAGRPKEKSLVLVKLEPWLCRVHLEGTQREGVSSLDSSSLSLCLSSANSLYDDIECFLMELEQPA
For `TTAGGTTTCGGTTTCGGTTCGTGCTAG`, the log fluorescence was 15.8 z-score.
The log fluorescence of `TGAGCTACAGATGAGGCTCGGTGCTAG` is reported as -0.14 z-score.
With `GACGATTTCGAGACTGGAGACGTGCTA` the log fluorescence was 0.568 z-score.
`TCATCATTGCCTATTTTTCAGTGCTAG` gave a log fluorescence of 1.02 z-score.
For `TTAAAACTGAGTTTCGATTAGTGCTAG`, the log fluorescence was 8.49 z-score.
The log fluorescence of `GACGGACTGCTTTTCCTTACGTGCTAG` is reported as 0.0902 z-score.
`GTGGCAGGCCCTCGGGCTCCGTGCTAG` has a log fluorescence of -1.21 z-score.
`ATCTTTTTCCCTATTATATAGTGCTAG` gave a log fluorescence of 2.55 z-score.
With `TTAGGTTCCGGTCTCGGTTAGTGCTAG` the log fluorescence was 3.47 z-score.
The log fluorescence of `TTTTTTTTTTTTTTTACTTCGTGCTAG` is reported as 0.831 z-score.
`GACGGACTCCTACTGCTGACGTGCTAG` has a log fluorescence of -0.168 z-score.
The log fluorescence of `GACGAACTGAGACTGGGGACGTGCTAG` is reported as -0.189 z-score.
The log fluorescence of `GACGATCTCAGTATCGAGACGTGCTAG` is reported as 0.221 z-score.
`TCAATTTTGGTTTTCTCACTGTGCTAG` has a log fluorescence of 0.689 z-score.
The log fluorescence of `TTAGGTATCGACACTGGGCTAGTGCTA` is reported as -0.215 z-score.
With `AAGTTTCTCCTTTCGGAATAGTGCTAG` the log fluorescence was 5.4 z-score.
With `GACGGTTTCCTACTACTGACGTGCTAG` the log fluorescence was 1.75 z-score.
`TTAGAACTGATTATCGATTAGTGCTAG` gave a log fluorescence of 0.233 z-score.
For `GACGGACTGCTCCTCCTGACGTGCTAG`, the log fluorescence was -0.661 z-score.

Block 3 — method: RNA Bind-n-Seq; molecule type: RNA; medium: in vitro; tested at: not given; reference: input RNA pool; reading: higher = stronger binding
Target: RING finger protein unkempt homolog, zinc fingers 1-6, GST-SBP tag (UNK, Homo sapiens, UniProt Q9C0B0, residues 30-357)
Notes: RNA with constant flanks, human-mouse chimeric sites, ends assumed
Shared flanks, not repeated: GGGAGUUCUACAGUCCGACGAUC … CAACAGAGGAUUGAGCAUCA
Residues (chain): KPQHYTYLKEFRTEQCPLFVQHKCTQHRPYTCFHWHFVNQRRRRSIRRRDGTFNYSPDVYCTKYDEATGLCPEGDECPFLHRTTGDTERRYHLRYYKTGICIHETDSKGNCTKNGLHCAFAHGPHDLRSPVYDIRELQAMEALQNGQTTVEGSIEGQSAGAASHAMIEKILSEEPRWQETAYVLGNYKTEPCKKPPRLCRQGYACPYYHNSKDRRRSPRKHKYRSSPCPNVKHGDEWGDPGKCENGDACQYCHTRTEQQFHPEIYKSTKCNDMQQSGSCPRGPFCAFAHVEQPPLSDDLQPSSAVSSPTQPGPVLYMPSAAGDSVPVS
The bound/input enrichment of `ACCUCCCCCUCCCGCCUCACCCCACCCAAGAAAGAAAGAAAGUUUUUGGCGUUUCUUUUCCUUCCCCAGUUAGAAUUAUUACAGUUUCCCCCGCAAGGGUCUAUCGAAGGGCUUGACGGA` is reported as 33.8 ratio.
The bound/input enrichment of `CUGUGUGUGCUGAAUAAUGAUUUGUGAAGAACUGUCCUCCAAGCUGUAACCCAUGCUGUUAUUAUAGUUGCUGCAAAAUGUUCUUCCUGAUAUUGAUUUUAUUUGUUAACUGAAGGUCUC` is reported as 0.399 ratio.
For `CAGCCUCAGAGCCCAGACUUCCUGGAUAUUACCAACCCUAAAGCGGUAUUAGAAAAUGCAUUGAGAAACUUCGCCUGUCUGACGACUGGGGAUGUGAUUGCCAUCAACUACAAUGAGAAG`, the bound/input enrichment was 0.389 ratio.
`UUCAAAGAAAAGGGCAGCUGUGUCAUUUCAUAAGUAACUCUGGGGGAGGGAAAUUCUGUUCUUUUGUUUAAUUUUCCCCCAAAUGAAACCAACAUGCGUGUUGAAGAAGGAAGAAUGAAU` gave a bound/input enrichment of 0.21 ratio.
For `GUGCCCUUCUCGCUGCUGCGGAGCCCGCCCAGCUGGGCAUUCCGGGACUGGUACCCUGCACACAGCCGCCUCUUCGAUCAAGCUUUCGGGGUGCCCCGGUUGCCCGAGGAGUGGUCGCAG`, the bound/input enrichment was 0.065 ratio.
The bound/input enrichment of `UGUGCCCCACAAGAUCCUACCUGAGUGGCAGCUGAAGCACUUUUCUUCUCCUUGCCUGAACCCCCCCCCACUGCCCCCCCAUCCCCCAGUGUCGGCUGAGAUGUUGCCUCUGCACGGUUC` is reported as 1.32 ratio.
With `UUCAAAGAAAAGGGCAGCUGUGUCAUUUCAUAAGUAAAACUGCAUCCGGGAAAUUCUGUUCUUUUGUUUAAUUUUCCCCCAGAUAAAGCCAAAGUGUGUGUUGAAGAACUGAGAAAAAAU` the bound/input enrichment was 0.267 ratio.
For `UGGCGCCUGCGCUCCCCACUCGUGUUUUUAAGUGUAUAAGAUGUAUAUACAUGUAUUUACAAUUGAGCUUUUGUUACAUAAUGCUGAAAUGCUACUGCAAUAUUAUGAAAAUGUUUCAAU`, the bound/input enrichment was 0.11 ratio.
For `GCUCUUGGGAAUGUAAUCAGCGCCUUGGGGGACAAGAGCAAGAGAGCCACCCAUGUCCCCUAUAGAGACUCUAAGCUGACAAGACUCCUACAGGAUUCCCUUGGGGGUAACAGCCAAACC`, the bound/input enrichment was 0.172 ratio.
With `UCUUUAAAAAAAAAAUUACCUUUUCUGACAGUGCUUUAUGGAGUAAAGAUCCACGUUCACACUAGAAGAGCAAAGGCUUUGCACGGAGCUCAAACAUCUGAUGAAGAAAGAUUUCUGAGA` the bound/input enrichment was 0.125 ratio.
The bound/input enrichment of `ACCUCCCCCUCCCGCCUGCUUUUUGAACCGCUUUUUGGAAAGUUUUUGGCGUUUCUUUUCCUUCCCCAGUUAGAAUUAUUACAGUUUCCCCCGCAAGGGUCUAUCGAAGGGCUUGACGGA` is reported as 36.9 ratio.

Block 4 — method: Sort-seq; item: YFP reporter; medium: E. coli; notes: PhoQ-PhoP variant library; together with: 10 µM Mg2+; reference: high Mg2+ state; reading: higher = stronger signaling
Substance: PhoQ, residues 284 288 289 292 302 303 SLSLLA
For PhoP, residues 12 14 15 18 19 TPWTL (Escherichia coli, UniProt P23836): fold induction read 21.1.
For PhoP, residues 12 14 15 18 19 NFFVT (Escherichia coli, UniProt P23836): fold induction read 2.16.
For PhoP, residues 12 14 15 18 19 LHHYF (Escherichia coli, UniProt P23836): fold induction read 10.
